Measurements from different studies.
Lines come from different studies, so protocols differ. Several values in a cell are separate wells, animals, samples, runs or records. ± gives the spread as reported.
Chain of UniProt Q8IWT6 (whole entry, unmodified, looked up): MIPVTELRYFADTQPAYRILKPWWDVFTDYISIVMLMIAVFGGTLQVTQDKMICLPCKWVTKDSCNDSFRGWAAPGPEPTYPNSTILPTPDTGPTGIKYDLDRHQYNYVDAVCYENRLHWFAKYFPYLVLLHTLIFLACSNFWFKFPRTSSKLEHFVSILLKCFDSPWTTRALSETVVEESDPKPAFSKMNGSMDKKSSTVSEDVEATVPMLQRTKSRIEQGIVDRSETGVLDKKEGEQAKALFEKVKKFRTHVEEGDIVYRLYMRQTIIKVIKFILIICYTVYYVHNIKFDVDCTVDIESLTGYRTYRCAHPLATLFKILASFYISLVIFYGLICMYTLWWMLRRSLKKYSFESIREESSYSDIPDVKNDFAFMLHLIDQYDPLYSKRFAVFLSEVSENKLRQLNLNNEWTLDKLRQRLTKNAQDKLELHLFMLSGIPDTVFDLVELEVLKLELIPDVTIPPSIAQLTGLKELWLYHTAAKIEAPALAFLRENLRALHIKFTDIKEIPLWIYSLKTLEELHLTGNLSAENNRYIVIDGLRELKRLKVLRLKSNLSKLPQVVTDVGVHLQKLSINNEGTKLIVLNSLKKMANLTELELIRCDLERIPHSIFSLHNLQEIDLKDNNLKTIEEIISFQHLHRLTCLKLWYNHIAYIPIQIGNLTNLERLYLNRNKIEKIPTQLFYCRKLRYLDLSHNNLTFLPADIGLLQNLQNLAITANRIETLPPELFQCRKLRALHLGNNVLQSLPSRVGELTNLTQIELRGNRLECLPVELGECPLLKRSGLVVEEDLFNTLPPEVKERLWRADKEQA
Chain of UniProt Q16774 (whole entry, looked up): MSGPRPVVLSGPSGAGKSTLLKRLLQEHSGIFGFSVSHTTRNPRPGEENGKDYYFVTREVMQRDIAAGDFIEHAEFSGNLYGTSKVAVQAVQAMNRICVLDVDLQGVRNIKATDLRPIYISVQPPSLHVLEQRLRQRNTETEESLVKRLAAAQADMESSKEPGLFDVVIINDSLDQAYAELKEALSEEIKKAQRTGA
Chain of UniProt P11388 (whole entry, looked up): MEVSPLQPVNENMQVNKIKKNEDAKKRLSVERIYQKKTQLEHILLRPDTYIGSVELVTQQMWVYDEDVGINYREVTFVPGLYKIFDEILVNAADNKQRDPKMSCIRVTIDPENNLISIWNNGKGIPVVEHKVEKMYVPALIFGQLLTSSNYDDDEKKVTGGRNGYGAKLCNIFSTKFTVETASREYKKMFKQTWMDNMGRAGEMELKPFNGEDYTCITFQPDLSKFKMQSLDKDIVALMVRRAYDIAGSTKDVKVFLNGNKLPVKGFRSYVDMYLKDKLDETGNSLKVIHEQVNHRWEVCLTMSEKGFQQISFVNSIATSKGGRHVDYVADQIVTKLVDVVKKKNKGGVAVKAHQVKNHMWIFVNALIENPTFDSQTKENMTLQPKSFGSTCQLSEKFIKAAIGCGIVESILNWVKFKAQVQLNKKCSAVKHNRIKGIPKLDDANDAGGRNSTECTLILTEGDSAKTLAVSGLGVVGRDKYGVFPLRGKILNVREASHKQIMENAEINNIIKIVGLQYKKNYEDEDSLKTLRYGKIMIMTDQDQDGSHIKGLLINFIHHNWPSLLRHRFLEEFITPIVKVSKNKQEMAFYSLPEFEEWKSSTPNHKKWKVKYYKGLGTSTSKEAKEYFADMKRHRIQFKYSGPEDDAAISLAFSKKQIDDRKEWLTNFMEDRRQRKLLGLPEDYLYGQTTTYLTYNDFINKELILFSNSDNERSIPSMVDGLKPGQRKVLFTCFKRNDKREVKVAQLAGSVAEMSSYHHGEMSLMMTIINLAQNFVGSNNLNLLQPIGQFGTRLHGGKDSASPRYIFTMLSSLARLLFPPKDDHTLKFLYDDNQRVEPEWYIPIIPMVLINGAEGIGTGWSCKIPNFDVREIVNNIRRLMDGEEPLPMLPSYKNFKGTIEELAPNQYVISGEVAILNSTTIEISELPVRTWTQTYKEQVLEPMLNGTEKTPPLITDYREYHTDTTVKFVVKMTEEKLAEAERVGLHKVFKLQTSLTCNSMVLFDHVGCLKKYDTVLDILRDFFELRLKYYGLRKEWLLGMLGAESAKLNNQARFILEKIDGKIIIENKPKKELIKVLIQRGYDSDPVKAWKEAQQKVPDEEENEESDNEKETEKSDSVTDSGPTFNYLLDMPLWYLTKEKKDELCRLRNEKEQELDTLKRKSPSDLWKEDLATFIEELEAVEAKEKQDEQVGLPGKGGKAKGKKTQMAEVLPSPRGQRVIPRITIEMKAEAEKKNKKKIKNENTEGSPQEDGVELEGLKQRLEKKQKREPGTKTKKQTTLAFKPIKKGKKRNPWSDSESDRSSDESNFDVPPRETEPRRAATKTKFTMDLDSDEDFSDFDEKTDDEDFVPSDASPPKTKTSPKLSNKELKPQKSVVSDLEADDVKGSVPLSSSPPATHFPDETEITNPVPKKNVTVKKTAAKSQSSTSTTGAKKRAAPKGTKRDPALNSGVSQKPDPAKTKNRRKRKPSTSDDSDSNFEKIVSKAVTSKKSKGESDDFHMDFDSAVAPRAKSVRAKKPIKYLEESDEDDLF
Chain of UniProt O75751 (whole entry, looked up): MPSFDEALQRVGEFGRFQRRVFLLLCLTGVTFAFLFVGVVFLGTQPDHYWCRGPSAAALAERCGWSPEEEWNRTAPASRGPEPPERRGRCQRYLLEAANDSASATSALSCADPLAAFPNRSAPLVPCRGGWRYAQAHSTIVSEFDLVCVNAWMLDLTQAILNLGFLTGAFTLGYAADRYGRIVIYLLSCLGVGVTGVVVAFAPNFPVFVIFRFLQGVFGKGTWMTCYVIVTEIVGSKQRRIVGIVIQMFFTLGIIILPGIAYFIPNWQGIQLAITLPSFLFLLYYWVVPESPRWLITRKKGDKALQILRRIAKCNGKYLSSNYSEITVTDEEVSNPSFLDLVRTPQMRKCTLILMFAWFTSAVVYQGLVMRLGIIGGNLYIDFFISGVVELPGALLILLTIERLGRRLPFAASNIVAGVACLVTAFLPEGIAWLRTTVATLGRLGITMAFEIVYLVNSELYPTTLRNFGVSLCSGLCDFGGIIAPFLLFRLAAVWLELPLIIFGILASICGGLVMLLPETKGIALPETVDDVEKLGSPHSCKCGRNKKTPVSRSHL
Chain of UniProt P63079 (whole entry, looked up): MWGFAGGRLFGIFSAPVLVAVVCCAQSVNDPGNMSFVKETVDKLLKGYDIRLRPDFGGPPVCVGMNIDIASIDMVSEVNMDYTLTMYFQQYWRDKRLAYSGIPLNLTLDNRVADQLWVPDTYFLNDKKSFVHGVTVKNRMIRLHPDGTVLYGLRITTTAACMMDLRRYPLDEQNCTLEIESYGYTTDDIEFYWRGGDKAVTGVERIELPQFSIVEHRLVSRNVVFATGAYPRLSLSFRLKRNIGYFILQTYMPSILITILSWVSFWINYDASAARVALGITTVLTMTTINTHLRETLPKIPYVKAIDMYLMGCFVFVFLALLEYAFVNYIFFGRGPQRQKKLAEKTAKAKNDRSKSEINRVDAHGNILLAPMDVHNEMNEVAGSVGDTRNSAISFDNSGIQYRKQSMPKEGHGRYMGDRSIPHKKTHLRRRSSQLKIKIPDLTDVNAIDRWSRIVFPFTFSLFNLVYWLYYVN
Chain of UniProt Q8TBX8 (whole entry, looked up): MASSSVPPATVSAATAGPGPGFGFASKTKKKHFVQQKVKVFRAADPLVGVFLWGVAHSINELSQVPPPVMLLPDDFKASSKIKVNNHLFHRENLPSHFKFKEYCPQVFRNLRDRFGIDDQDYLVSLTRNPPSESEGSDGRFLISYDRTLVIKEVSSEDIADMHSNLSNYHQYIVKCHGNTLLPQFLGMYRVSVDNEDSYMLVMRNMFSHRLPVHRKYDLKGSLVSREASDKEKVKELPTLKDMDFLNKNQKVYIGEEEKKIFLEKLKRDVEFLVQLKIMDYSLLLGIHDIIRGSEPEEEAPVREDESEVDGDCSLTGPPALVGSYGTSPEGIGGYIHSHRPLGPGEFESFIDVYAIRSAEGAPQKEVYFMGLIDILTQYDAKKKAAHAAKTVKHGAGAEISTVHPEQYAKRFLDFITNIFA
Chain of UniProt Q13258 (whole entry, unmodified, looked up): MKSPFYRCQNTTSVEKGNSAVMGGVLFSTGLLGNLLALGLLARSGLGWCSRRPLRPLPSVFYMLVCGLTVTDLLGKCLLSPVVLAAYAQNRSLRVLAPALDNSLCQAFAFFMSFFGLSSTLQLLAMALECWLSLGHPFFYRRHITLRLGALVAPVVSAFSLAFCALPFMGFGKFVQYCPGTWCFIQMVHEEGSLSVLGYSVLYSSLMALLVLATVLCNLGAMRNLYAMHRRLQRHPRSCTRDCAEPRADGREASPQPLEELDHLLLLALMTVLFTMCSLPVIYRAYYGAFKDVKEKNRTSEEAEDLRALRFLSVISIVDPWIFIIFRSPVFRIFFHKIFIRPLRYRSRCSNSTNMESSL
Chain of UniProt Q03330 (whole entry, looked up): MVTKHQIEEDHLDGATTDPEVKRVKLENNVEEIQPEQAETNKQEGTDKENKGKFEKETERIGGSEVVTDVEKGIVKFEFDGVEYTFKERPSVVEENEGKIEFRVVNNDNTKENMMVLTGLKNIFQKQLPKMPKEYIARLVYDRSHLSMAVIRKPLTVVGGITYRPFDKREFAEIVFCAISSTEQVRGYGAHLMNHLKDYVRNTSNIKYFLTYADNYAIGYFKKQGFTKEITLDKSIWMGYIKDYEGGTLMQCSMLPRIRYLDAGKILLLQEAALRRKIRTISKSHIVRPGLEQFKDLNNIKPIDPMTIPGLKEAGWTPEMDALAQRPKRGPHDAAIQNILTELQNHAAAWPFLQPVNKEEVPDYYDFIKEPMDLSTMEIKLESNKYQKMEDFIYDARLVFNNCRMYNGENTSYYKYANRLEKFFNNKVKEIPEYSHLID

Structure (SMILES) = O=C(Nc1cccc2c(=O)cc(-c3nnn[nH]3)oc12)c1ccc(OCCCCc2ccccc2)cc1; target = LRRC8A/LRRC8C (Homo sapiens, UniProt Q8IWT6+Q8TDW0, M48D/T48D); assay = ion current, whole-cell patch clamp; system = HCT LRRC8-/- cells; setting = 0.1 µM, +100 mV, T48D/M48D heteromers; measurement = inhibition; value = 3.73% and 1.34% and -5.75%
Structure (SMILES) = C=CC(=O)N1CCC(COCC(=O)N2CCN(c3nc(-c4cnc(N)nc4C(F)F)nc(N4CCOC[C@@H]4C)n3)CC2)CC1; target = PIP4K2C (Homo sapiens, UniProt Q8TBX8); assay = KINOMEscan; setting = 1 µM; measurement = remaining binding; value = 90%
Structure (SMILES) = O=c1nc(SCc2cc(F)cc(C(F)(F)F)c2)nc(SCc2ccc3nc(Cl)ccc3c2)[nH]1; target = TOP2A (Homo sapiens, UniProt P11388); assay = ATPase activity; setting = 31.25 µM, together with: ATP 1 mM; measurement = ATP hydrolysis rate; value = 2.44 µM/min and 1.75 µM/min
Structure (SMILES) = COc1cccc(-n2nc3c4cc(Cl)ccc4[nH]cc-3c2=O)c1; target = Gamma-aminobutyric acid receptor subunit alpha-6/beta-3, with delta subunit (Gabra6/Gabrb3, Rattus norvegicus, UniProt P30191+P63079); assay = ion current, modulator, two-electrode voltage clamp; setting = 10 µM, α6β3δ receptor, together with: GABA EC3-10; measurement = efficacy; value = 159 ± 13.4%
Structure (SMILES) = Nc1nc2c(ncn2[C@@H]2O[C@H](COP(=O)(O)O)[C@@H](O)[C@H]2O)c(=O)[nH]1; target = GUK1 (Homo sapiens, UniProt Q16774); assay = enzyme activity, NADH-coupled; setting = 500 µM, together with: KCl 10 mM; measurement = reaction velocity; value = 0.113 µM/s and 0.1 µM/s and 0.104 µM/s
Structure (SMILES) = CN(C)C(=O)C(CCN1CCC(O)(c2ccc(Cl)cc2)CC1)(c1ccccc1)c1ccccc1; target = Calcium-activated potassium channel subunit alpha-1, with LRRC26 γ1 subunit (KCNMA1, Homo sapiens, UniProt Q12791); assay = BK current, inside-out patch clamp; system = excised membrane patch; setting = 30 µM, γ1 coexpressed, individual fits, together with: nominally 0 Ca2+ cytosolic; measurement = effective gating valence; value = 1.53 ± 0.38 elementary charges
Structure (SMILES) = C[C@@H]1CCO[C@H]2Cn3cc(C(=O)NCc4ccc(F)cc4F)c(=O)c(O)c3C(=O)N12; target = SLC22A3 (Homo sapiens, UniProt O75751); assay = transport; system = MDCK-II, transfected; setting = 50 µM, together with: MPP+ 2 µM; measurement = inhibition; value = 6.56%
Structure (SMILES) = OO; target = Histone acetyltransferase GCN5, with Ada2 and Ada3 (Saccharomyces cerevisiae S288c, UniProt Q03330); assay = enzyme activity, inhibitor; setting = 250 µM, Gcn5-Ada2-Ada3 complex, 1 mM DTT, together with: [3H]acetyl-CoA; measurement = inhibition; value = 12 ± 10%
Structure (SMILES) = CC[C@H](C)[C@H](NC(=O)[C@H](Cc1ccccc1)NC(=O)[C@H](CCC(=O)O)NC(=O)[C@H](CCCNC(=N)N)NC(=O)[C@H](C)NC(=O)[C@H](C)NC(=O)[C@H](CCC(N)=O)NC(=O)[C@H](CCC(=O)O)NC(=O)[C@H](CCC(=O)O)NC(=O)[C@H](CC(C)C)NC(=O)[C@H](Cc1ccc(O)cc1)NC(=O)[C@H](CO)NC(=O)[C@H](CO)NC(=O)[C@@H](NC(=O)[C@H](CC(=O)O)NC(=O)[C@H](CO)NC(=O)[C@@H](NC(=O)[C@H](Cc1ccccc1)NC(=O)[C@@H](NC(=O)CNC(=O)[C@H](CCC(=O)O)NC(=O)[C@H](C)NC(=O)CCc1cnc[nH]1)[C@@H](C)O)[C@@H](C)O)C(C)C)C(=O)N[C@@H](C)C(=O)N[C@@H](Cc1c[nH]c2ccccc12)C(=O)N[C@@H](CC(C)C)C(=O)N[C@H](C(=O)N[C@@H](CCCNC(=N)N)C(=O)NCC(=O)N[C@@H](CCCNC(=N)N)C(=O)N[C@@H](CCCCNC(=O)COCCOCCNC(=O)COCCOCCNC(=O)CC[C@H](NC(=O)CCCCCCCCCCCCCCCCC(=O)O)C(=O)O)C(=O)NCC(=O)NCC(=O)N[C@@H](CO)C(=O)N[C@@H](CCCCNC(=O)[C@H](CCCCNC(=O)[C@H](CCCCNc1c(NCCCCCN(O)C(=O)CCC(=O)NCCCCCN(O)C(=O)CCC(=O)NCCCCCN(O)C(C)=O)c(=O)c1=O)Nc1c(NCCCCCN(O)C(=O)CCC(=O)NCCCCCN(O)C(=O)CCC(=O)NCCCCCN(O)C(C)=O)c(=O)c1=O)NC(=O)[C@H](CCCCNc1c(NCCCCCN(O)C(=O)CCC(=O)NCCCCCN(O)C(=O)CCC(=O)NCCCCCN(O)C(C)=O)c(=O)c1=O)Nc1c(NCCCCCN(O)C(=O)CCC(=O)NCCCCCN(O)C(=O)CCC(=O)NCCCCCN(O)C(C)=O)c(=O)c1=O)C(=O)O)C(C)C; target = GLP1R (Homo sapiens, UniProt P43220); assay = agonist, CRE luciferase reporter; system = BHK cells; setting = Zr-loaded DFO conjugate, together with: 1% HSA; how to read = reference: parent peptide; measurement = fold potency loss; value = 3.1
Structure (SMILES) = CCCCC[C@H](O)/C=C/[C@H]1C(=O)C[C@H](O)[C@@H]1C/C=C\CCCC(=O)O; target = PTGDR (Homo sapiens, UniProt Q13258, D72N); assay = agonist; setting = 10 µM; measurement = activation; value = 91.3%

A few entries again:
Structure (SMILES) = CCCCC[C@H](O)/C=C/[C@H]1C(=O)C[C@H](O)[C@@H]1C/C=C\CCCC(=O)O; target = PTGDR (Homo sapiens, UniProt Q13258, D72N); assay = agonist; setting = 10 µM; measurement = activation; value = 91.3%
